Published values of several laboratories.
A part holds a random share of what one study measured.
Sequence of UniProt Q9UF33 (whole entry, looked up): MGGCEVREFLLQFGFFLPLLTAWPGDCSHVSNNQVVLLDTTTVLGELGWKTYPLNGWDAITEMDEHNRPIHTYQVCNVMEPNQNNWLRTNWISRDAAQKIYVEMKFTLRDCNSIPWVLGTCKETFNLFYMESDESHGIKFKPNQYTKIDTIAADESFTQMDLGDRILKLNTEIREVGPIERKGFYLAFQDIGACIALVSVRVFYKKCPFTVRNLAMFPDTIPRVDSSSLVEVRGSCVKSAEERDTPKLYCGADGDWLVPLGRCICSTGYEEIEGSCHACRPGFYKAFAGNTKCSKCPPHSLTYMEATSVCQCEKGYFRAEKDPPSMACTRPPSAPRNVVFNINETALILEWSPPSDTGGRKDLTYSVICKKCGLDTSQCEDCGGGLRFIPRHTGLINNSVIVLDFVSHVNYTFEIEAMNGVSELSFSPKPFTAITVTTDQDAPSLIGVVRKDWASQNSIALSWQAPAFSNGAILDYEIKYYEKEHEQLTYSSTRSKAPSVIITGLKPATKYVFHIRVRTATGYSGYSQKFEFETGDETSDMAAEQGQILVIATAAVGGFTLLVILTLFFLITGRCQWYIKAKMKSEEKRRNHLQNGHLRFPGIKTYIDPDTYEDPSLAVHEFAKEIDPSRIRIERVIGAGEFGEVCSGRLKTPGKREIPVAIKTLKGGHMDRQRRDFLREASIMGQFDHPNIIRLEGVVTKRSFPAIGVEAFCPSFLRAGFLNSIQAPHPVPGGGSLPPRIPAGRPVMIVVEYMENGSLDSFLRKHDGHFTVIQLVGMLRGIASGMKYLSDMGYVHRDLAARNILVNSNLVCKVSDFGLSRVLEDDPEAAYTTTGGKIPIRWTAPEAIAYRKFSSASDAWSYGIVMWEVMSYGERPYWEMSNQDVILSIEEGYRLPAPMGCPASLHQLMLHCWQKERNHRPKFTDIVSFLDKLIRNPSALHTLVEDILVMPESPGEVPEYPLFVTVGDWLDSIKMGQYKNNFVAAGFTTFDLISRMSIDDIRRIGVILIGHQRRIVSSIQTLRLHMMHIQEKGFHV
Sequence of UniProt Q9Y3S1 (whole entry, looked up): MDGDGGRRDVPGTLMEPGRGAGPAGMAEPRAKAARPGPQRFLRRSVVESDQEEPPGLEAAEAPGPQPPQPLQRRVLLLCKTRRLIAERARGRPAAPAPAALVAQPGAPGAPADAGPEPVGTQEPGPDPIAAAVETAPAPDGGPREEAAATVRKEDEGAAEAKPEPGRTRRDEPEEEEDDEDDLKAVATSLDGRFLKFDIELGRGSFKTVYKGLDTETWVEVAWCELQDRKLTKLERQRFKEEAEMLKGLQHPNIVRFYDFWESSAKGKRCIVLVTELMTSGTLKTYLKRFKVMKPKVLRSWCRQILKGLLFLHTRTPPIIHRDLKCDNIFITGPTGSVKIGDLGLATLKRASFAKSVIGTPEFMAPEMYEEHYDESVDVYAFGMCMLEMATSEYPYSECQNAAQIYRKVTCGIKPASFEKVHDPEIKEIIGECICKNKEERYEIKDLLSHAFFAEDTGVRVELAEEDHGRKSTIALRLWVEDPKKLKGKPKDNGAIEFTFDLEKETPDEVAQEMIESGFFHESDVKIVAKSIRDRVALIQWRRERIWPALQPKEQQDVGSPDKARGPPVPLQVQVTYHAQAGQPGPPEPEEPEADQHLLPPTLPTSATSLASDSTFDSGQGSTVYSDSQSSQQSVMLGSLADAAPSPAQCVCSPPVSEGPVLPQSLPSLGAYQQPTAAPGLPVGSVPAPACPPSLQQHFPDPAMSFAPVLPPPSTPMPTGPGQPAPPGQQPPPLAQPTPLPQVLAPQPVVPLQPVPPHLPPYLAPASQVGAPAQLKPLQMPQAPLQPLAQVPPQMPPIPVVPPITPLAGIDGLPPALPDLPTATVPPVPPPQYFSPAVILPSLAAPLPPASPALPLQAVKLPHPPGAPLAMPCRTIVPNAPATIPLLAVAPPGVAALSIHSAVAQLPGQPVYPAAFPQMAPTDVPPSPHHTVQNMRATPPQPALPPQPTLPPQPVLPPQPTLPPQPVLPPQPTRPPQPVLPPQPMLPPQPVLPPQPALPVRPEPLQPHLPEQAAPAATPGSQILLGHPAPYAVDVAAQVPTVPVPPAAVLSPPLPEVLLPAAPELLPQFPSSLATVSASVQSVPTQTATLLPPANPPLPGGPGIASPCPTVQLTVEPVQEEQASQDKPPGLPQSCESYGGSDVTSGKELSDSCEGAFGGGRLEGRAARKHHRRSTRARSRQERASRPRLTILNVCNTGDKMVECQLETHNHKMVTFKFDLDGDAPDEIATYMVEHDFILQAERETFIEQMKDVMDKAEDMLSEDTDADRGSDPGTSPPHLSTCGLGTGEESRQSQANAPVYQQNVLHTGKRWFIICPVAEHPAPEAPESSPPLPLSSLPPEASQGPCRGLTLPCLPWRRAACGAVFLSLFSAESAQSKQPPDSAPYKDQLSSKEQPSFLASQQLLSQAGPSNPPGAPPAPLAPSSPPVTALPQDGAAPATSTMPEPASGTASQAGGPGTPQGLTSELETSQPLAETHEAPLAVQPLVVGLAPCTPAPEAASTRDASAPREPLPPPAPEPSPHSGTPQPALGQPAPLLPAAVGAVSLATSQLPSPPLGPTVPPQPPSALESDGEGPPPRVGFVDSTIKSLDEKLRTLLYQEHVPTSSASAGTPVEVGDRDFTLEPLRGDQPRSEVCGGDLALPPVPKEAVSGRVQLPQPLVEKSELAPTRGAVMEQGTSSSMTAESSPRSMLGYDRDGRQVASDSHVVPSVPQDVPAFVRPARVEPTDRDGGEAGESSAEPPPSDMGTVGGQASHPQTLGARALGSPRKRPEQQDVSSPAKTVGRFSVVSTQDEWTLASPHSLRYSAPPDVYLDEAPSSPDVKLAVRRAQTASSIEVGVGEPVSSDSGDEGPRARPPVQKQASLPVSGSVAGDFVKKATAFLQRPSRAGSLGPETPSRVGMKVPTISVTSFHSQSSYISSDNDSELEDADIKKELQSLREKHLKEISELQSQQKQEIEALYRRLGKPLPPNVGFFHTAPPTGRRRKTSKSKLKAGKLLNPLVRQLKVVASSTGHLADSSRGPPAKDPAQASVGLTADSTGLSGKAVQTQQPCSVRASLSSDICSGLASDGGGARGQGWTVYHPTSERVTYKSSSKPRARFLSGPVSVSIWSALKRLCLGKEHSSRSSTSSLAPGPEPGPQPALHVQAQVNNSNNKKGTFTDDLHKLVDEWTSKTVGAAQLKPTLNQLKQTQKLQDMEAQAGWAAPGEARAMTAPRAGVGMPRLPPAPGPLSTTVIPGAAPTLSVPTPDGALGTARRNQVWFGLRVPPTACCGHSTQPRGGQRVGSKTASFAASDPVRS
Sequence of UniProt Q8IWQ3 (whole entry, looked up): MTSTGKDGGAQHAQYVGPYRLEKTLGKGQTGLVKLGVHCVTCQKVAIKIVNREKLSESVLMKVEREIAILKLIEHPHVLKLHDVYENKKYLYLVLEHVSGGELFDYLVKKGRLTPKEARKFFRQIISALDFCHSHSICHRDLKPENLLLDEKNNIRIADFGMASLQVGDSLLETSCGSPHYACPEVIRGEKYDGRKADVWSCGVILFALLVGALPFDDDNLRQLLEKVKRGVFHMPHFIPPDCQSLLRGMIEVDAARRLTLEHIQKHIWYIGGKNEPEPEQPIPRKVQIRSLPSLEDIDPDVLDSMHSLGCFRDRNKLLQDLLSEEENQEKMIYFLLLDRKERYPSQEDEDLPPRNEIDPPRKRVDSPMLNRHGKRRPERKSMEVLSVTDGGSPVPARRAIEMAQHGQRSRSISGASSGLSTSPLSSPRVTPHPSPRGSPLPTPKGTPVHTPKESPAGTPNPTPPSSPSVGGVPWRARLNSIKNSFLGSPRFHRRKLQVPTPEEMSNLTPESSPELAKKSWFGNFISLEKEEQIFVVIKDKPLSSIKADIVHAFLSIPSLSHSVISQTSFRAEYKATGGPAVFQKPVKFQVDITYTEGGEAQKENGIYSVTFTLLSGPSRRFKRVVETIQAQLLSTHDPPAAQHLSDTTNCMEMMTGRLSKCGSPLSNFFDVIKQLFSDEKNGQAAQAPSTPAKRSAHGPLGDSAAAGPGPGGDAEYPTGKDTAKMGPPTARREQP
Sequence of UniProt Q8IVW4 (whole entry, looked up): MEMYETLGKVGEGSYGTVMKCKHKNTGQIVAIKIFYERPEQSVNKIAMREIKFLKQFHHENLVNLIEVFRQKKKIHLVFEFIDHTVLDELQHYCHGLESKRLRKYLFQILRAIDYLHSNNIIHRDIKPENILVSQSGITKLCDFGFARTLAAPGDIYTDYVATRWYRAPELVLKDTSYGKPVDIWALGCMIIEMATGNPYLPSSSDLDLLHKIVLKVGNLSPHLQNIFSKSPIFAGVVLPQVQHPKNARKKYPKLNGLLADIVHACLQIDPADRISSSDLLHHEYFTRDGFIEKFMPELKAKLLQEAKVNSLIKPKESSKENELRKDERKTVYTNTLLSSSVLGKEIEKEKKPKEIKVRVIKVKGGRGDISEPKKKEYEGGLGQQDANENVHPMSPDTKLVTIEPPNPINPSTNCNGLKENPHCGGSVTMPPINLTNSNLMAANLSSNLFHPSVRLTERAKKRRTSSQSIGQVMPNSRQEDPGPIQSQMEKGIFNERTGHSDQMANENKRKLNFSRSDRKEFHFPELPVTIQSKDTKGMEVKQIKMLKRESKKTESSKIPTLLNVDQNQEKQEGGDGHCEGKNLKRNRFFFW
Sequence of UniProt Q00535 (whole entry, looked up): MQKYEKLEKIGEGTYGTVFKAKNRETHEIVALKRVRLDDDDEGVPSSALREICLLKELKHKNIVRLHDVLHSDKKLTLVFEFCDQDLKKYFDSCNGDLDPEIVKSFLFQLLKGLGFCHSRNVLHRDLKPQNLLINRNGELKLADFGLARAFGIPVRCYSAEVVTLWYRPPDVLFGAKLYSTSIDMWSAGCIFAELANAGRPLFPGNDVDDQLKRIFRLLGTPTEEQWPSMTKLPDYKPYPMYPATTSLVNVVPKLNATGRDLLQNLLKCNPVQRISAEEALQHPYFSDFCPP

Set 1
SMILES: CS(=O)(=O)CCNCc1ccc(-c2ccc3ncnc(Nc4ccc(OCc5cccc(F)c5)c(Cl)c4)c3c2)o1
Observed: enzyme activity
Action: inhibitor
Concentration: 0.5 µM
Baseline: control
Quantity: remaining activity
target = TYRO3 (Homo sapiens, UniProt Q06418); result = 98.9%
target = BRSK2 (Homo sapiens, UniProt Q8IWQ3); result = 106%
target = EPHA2 (Homo sapiens, UniProt P29317); result = 99%
target = PIM1 (Homo sapiens, UniProt P11309); result = 99%
target = RPS6KA3 (Homo sapiens, UniProt P51812); result = 105%
target = Cyclin-dependent kinase 5, with p35 (CDK5, Homo sapiens, UniProt Q00535); result = 103%
target = SIK2 (Homo sapiens, UniProt Q9H0K1); result = 101%
target = FES (Homo sapiens, UniProt P07332); result = 104%
target = FLT1 (Homo sapiens, UniProt P17948); result = 100%
target = PAK6 (Homo sapiens, UniProt Q9NQU5); result = 106%
target = IGF1R (Homo sapiens, UniProt P08069); result = 87.4%
target = EPHA6 (Homo sapiens, UniProt Q9UF33); result = 115%
target = ACVRL1 (Homo sapiens, UniProt P37023); result = 105%
target = CAMK1 (Homo sapiens, UniProt Q14012); result = 102%
target = CAMKK1 (Homo sapiens, UniProt Q8N5S9); result = 98.8%

Set 2
SMILES: CCC(=O)N[C@@H]1CC[C@H](C(=O)N(C)c2ccc(-c3nc4ccccc4o3)cc2)C1
Observed: cell-free assay
Method: competition with immobilised ligand
Concentration: 1 µM
Quantity: remaining binding
target = BTK (Homo sapiens, UniProt Q06187); result = 87%
target = STK17B (Homo sapiens, UniProt O94768); result = 99%
target = Ribosomal protein S6 kinase alpha-5, C-terminal kinase domain (RPS6KA5, Homo sapiens, UniProt O75582); result = 97%
target = WNK2 (Homo sapiens, UniProt Q9Y3S1); result = 92%
target = CDKL3 (Homo sapiens, UniProt Q8IVW4); result = 79%
target = EPHA6 (Homo sapiens, UniProt Q9UF33); result = 100%

Set 3
Organism: Sarcocystis neurona
Method: HTS
Concentration: concentration not given
Quantity: activity
SMILES = Cc1c(C(=O)NN2CCCCC2)nn(-c2ccc(Cl)cc2Cl)c1-c1ccc(I)cc1; result = active
SMILES = Cl.O=C1[C@H]2CCCC[C@H]2C(=O)N1CCCCN1CCN(c2nsc3ccccc23)CC1; result = active
SMILES = COc1cc(NC(C)CCCN)c2ncccc2c1.O=P(O)(O)O.O=P(O)(O)O (centres unmarked); result = active

Set 4
Cell line: HaCaT
Concentration: 100 µM
Time: 18 h
Quantity: viability
SMILES = Cc1onc(-c2ccccc2Cl)c1C(=O)N[C@@H]1C(=O)N2[C@@H]1SC(C)(C)[C@@H]2C(=O)O; result = 108%
SMILES = CC(C)(C)NCC(O)c1ccc(O)c(CO)c1 (centres unmarked); result = 91%
SMILES = O=C(c1ccccc1)c1ccc2n1CCC2C(=O)O (centres unmarked); result = 41.1%
SMILES = COc1cc([C@@H]2c3cc4c(cc3[C@@H](O[C@@H]3O[C@@H]5CO[C@@H](C)O[C@H]5[C@H](O)[C@H]3O)[C@H]3COC(=O)[C@H]23)OCO4)cc(OC)c1O; result = 112%
SMILES = CNNCc1ccc(C(=O)NC(C)C)cc1; result = 112%

Set 5
Sample: hydrocarbon/water
Quantity: logD
SMILES = CCCN1CC(=O)N[C@@H](CC(C)C)C(=O)N2CCC[C@@H]2C(=O)N(C)[C@@H](C)C(=O)N[C@@H](CC(C)C)C(=O)N(C)[C@@H](C)C(=O)N[C@@H](CC(C)C)C(=O)N(C)Cc2cn(nn2)CC(=O)N[C@@H](CC(C)C)C1=O; result = -0.12
SMILES = CCOC(=O)[C@@H]1CSCC(=O)N[C@H](CC)C(=O)N(CC(C)C)CC(=O)N[C@@H](CC(C)C)C(=O)N(C)[C@H](C)C(=O)N(C)[C@@H](C)C(=O)N[C@@H](CC(C)C)C(=O)N(C)[C@H](C)C(=O)N[C@@H](CC(C)C)C(=O)N1C; result = 0.987
SMILES = CCOC(=O)[C@@H]1CSCC(=O)N[C@@H](CC)C(=O)N(C)[C@@H](C)C(=O)N[C@@H](CC(C)C)C(=O)N2CCC[C@H]2C(=O)N(CC(C)C)CC(=O)N[C@H](CC(C)C)C(=O)N(C)[C@H](C)C(=O)N[C@@H](CC(C)C)C(=O)N1C; result = 0.726

For quick reference, copied from above (set 2):
target = BTK (Homo sapiens, UniProt Q06187); result = 87%
target = WNK2 (Homo sapiens, UniProt Q9Y3S1); result = 92%
